Experimental data collected from several papers.
Protocols differ between the studies behind these lines. Values joined by “and” are separate records of one study, mostly repeats; a detail may differ. In brackets after ≈: the same amount, converted by molar mass.
Organism: Staphylococcus aureus

c1ccc(CN2CCOCCOCCN(CCCCCCCCCCN3CCOCCOCCN(CCCCCCCCCCN4CCOCCOCCN(Cc5ccccc5)CCOCCOCC4)CCOCCOCC3)CCOCCOCC2)cc1  fold enhancement (ethidium bromide activity, efflux inhibitor; 1199B NorA overexpressing; half MIC, added: ethidium bromide; baseline: ethidium bromide alone): 16 fold
CC(C)[C@H]1NC(=O)[C@H](Cc2ccccc2)NC(=O)[C@@H](C(C)C)NC(=O)[C@@H](C)NC(=O)[C@H](C)NC(=O)[C@@H](Cc2c(-c3ccc(-c4ccc5ccccc5c4)cc3)[nH]c3ccccc23)NC(=O)[C@@H](CO)NC1=O  MIC90 (broth dilution): > 50 µM
Cc1ccc(CNC(=O)C(=O)c2c(C)nc3ccc(C)cn23)cc1  inhibition zone (microbial growth; SG511; 2 mM, 20 h): 0 mm
CC[C@H](C)[C@@H]1NC(=O)[C@H](CCC(N)=O)NC(=O)[C@@H](NC(=O)[C@H](CC(C)C)NC(=O)[C@H](C)NC(=O)[C@H](C)NC(=O)[C@@H]2CCCN2C(=O)[C@H](CC(C)C)NC(=O)[C@@H](NC(=O)[C@H](CCCCN)NC(=O)[C@H](C)NC(=O)[C@H](C)NC(=O)[C@@H](NC(=O)[C@H](CCCCN)NC(=O)[C@H](CC(C)C)NC(=O)[C@@H](NC(=O)[C@@H](NC(=O)CNC(=O)[C@H](CC(C)C)NC(=O)[C@@H](N)Cc2ccccc2)[C@@H](C)O)C(C)C)C(C)C)C(C)C)CSSC[C@@H](C(=O)O)NC(=O)[C@H](CCCCN)NC(=O)[C@H](CCCCN)NC(=O)[C@H](Cc2ccccc2)NC1=O  time to eradication (time-kill; ATCC 6538; 2-4 x MIC): ≤ 120 min
CC(C)[C@H]1NC(=O)[C@H](Cc2ccccc2)NC(=O)[C@@H](C(C)C)NC(=O)[C@@H](C)NC(=O)[C@H](CO)NC(=O)[C@@H](Cc2c(-c3ccc(-c4ccccc4)c4ccccc34)[nH]c3ccccc23)NC(=O)[C@@H](CO)NC1=O  MIC90 (broth dilution): > 50 µM
CC(C)C[C@H](NC(=O)[C@H](CCN)NC(=O)[C@H](CCN)NC(=O)[C@@H](Cc1ccccc1)NC(=O)[C@H](CC(C)C)NC(=O)[C@H](CCN)NC(=O)[C@H](CCN)NC(=O)[C@@H](CCN)NC(=O)CCSCCOC(=O)C(C)(C)C)C(N)=O  MBC (ATCC 6538; 24 h, 37 °C): 128 µM (≈ 142 µg/mL)
COc1ccc2c(c1OC)C[NH+]1CCc3cc4c(cc3C1C2)OCO4.[Cl][Fe-]([Cl])([Cl])[Cl] (centres unmarked)  MIC50 (24 h, 37 °C): 899 µM
CCCNC(=O)[C@H](Cc1ccc(O)cc1)NC(=O)[C@H](Cc1ccc(O)cc1)NC(=O)[C@H](NC(=O)[C@@H](Cc1ccc(O)cc1)NC(=O)[C@H](CC(N)=O)NC(=O)[C@@H](Cc1ccc(O)cc1)NC(=O)[C@@H](CC(C)C)NC)c1ccc(O)cc1  IC50 (bacterial growth): > 40 µM
Cc1ccc(-c2nc3ccc(C)cn3c2CC(=O)NCc2ccc(N(C)C)cc2)cc1  inhibition zone (microbial growth; SG511; 2 mM, 20 h): 15 mm
CC[C@H](C)[C@@H]1NC(=O)[C@H](CO)NC(=O)[C@H](CCCCN)NC(=O)[C@@H]2CSSC[C@@H](C(=O)N[C@@H](Cc3ccc(O)cc3)C(N)=O)NC(=O)[C@H](CCCCN)NC(=O)[C@@H]3CSSC[C@H](NC(=O)[C@H](CCCNC(=N)N)NC(=O)[C@H](CC(C)C)NC(=O)[C@H](CC(=O)O)NC(=O)[C@H](CC(=O)O)NC(=O)[C@H](CCC(=O)O)NC(=O)[C@H](CC(N)=O)NC(=O)[C@H](Cc4c[nH]c5ccccc45)NC(=O)[C@@H]4CCCN4C(=O)CNC(=O)[C@H](CC(N)=O)NC(=O)[C@@H](NC(=O)CNC(=O)[C@H](Cc4ccccc4)NC(=O)CN)CSSC[C@H](NC(=O)[C@H](Cc4ccc(O)cc4)NC(=O)CNC(=O)CNC(=O)[C@H](CCCCN)NC(=O)[C@H](Cc4ccc(O)cc4)NC(=O)CNC(=O)[C@H](CCCCN)NC1=O)C(=O)N[C@@H](C)C(=O)N[C@@H](CCCCN)C(=O)NCC(=O)NCC(=O)N[C@@H](Cc1ccccc1)C(=O)N[C@@H](C(C)C)C(=O)N3)C(=O)N[C@@H](Cc1c[nH]cn1)C(=O)N[C@@H](CC(N)=O)C(=O)N[C@@H](Cc1c[nH]cn1)C(=O)N2  MBC (469; 24 h, 37 °C, 99.9% killing): 0.5 µM (≈ 2.21 µg/mL)
COc1cc(OC)cc(B(O)O)c1  biofilm formation (crystal violet; USA300 wild type; 5 µM; baseline: wild type untreated): 51.4% and 55.9% and 55.4%
Oc1c(Br)cc(Br)c2nc3cc(F)c(F)cc3nc12  MIC (broth microdilution; MRSA BAA-1707): 0.15 µM (≈ 0.0585 µg/mL)
OB(O)c1ccc(C(F)(F)F)s1  growth (OD600; USA300 fphE::Tn transposon mutant; 5 µM; baseline: wild type): 61.4% and 65% and 83.3% and 79.3% and 80.5% and 91.6%
CC(C)C[C@H](NC(=O)[C@H](CC(C)C)NC(=O)[C@H](CCCCN)NC(=O)[C@H](Cc1ccccc1)NC(=O)[C@@H](NC(=O)[C@H](CCCNC(=N)N)NC(=O)[C@@H](N)CCCCN)C(C)C)C(=O)N[C@@H](CCCCN)C(=O)N[C@@H](CCCNC(=N)N)C(=O)N[C@@H](Cc1ccc(O)cc1)C(=O)N[C@@H](Cc1c[nH]c2ccccc12)C(=O)N[C@@H](CCCNC(=N)N)C(=O)N[C@@H](CCC(N)=O)C(=O)N[C@@H](CC(C)C)C(=O)N[C@@H](CCCCN)C(=O)N[C@@H](CCCCN)C(=O)N1CCC[C@H]1C(=O)N[C@H](C(=O)N[C@@H](CCCNC(=N)N)C(=O)NCCOCCOCC(=O)O)C(C)C  ROS level (DCFH-DA fluorescence; concentration not given; baseline: untreated): 10 to 12 fold
